Measurements from different studies.
Compare with care: the assays were run in different laboratories. Numbers after ± are the reported error.

CC(C)c1cnc(-c2cc(Cl)ccc2F)cc1Nc1ccncc1C(=O)NC(CO)CO — patients with related SAE (refers to: intracranial tumour haemorrhage; human patients; oral, dose not given, grade 4): 0%
Cn1c(=O)oc2ccc(-c3ccc(CC(C#N)NC(=O)C4CNCCCO4)c(F)c3)cc21 (stereo not shown) — subjects with TEAE (refers to: urinary occult blood positive; human; 80 mg single dose, fasted): 0%
Cc1ccc(OCC(=O)N(Cc2cccs2)c2ccn[nH]2)cc1 — bioavailability (female Sprague-Dawley rat, plasma; oral, 30 mg/kg, single dose): 0.32%
O=C(O)CCC(NP(=O)(O)OCCC[C@@H](NC(=O)CC[C@H](NC(=O)CCCCCNC(=O)c1ccc([18F])cc1)C(=O)O)C(=O)O)C(=O)O (stereo partly shown) — tumour uptake (mouse, CWR22Rv1 tumour xenograft, tumour; dose not given, 1 h): 2.35%
COc1ccc(OC)c(/C(=C\c2ccc(O)c(O)c2)C(=O)NCCc2ccc(O)cc2)c1 — formation from FLZ (mouse liver S9; concentration not given, 30 min, with: FLZ): not detected
CCCC[C@H](NC(C)=O)C(=O)N[C@H]1CC(=O)NCCCC[C@@H](C(=O)N[C@@H](C(=O)N2CCC[C@@H]2C(N)=O)C(C)C)NC(=O)[C@H](Cc2c[nH]c3ccccc23)NC(=O)[C@H](CCCN=C(N)N)NC(=O)[C@@H](Cc2ccc3ccccc3c2)NC(=O)[C@@H]2CCCN2C1=O — half-life (Beagle dog, both sexes, plasma; subcutaneous, once daily, 2.25 mg/kg, day 28): 3.7 ± 0.5 h
CC(=O)N([O-])CCCCCNC(=O)CCC(=O)N([O-])CCCCCNC(=O)CCC(=O)N([O-])CCCCCN.[89Zr+4] — intact complex (radio-iTLC; aqueous buffer; initial, pH 8.0, 37 °C, EDTA challenge, with: 100-fold excess EDTA): 98.1 ± 0.2%
COc1cc2c(cc1OC)CN(CCCCn1ccc3cc(OCC[18F])ccc31)C2 — muscle uptake (male ICR mice; intravenous, 280 kBq, 30 min post-injection): 2.48 ± 0.18 %ID/g
CCCC[C@H](NC(=O)CNC(=O)CNC(=O)CN1CCN(CC(=O)O)CCN(CC(=O)O)CCN(CC(=O)O)CC1)C(=O)N[C@H]1CC(=O)NCCCC[C@@H](C(N)=O)NC(=O)[C@H](Cc2c[nH]c3ccccc23)NC(=O)[C@H](CCCNC(=N)N)NC(=O)[C@@H](Cc2ccccc2)NC(=O)[C@H](Cc2c[nH]cn2)NC1=O [lead-203 labelled] — tissue uptake (C57 mouse, spleen; intravenous, 0.056 MBq, 24 h): 0.28 ± 0.11 %ID/g
CC(O)c1cc(Cl)ccc1Cn1c(=S)[nH]c(=O)c2[nH]ccc21 (stereo not shown) — exposure ratio (Sprague-Dawley rat, both sexes, plasma; oral, 125 mg/kg/day; baseline: rat over human clinical doses): ≥ 1.6
COC(=O)c1ccc(-c2cn(Cc3cc(Cl)ccc3O[11CH3])nn2)cc1 — radioactivity (C57BL/6 mouse, muscle; dose not given, 2 min): 0.51 %ID/cc
CSc1ccc([C@H]2C[C@@]3(C)[C@@H](CC[C@@]3(O)C(F)(F)C(F)(F)F)[C@@H]3CCC4=CC(=O)CCC4=C32)cc1 — maximal oral bioavailability (human liver microsomes; 100 % absorption assumed): 31%
CSCOC1C(=O)C2(C)C(OCSC)CC3OCC3(OC(C)=O)C2C(OC(=O)c2ccccc2)C2(O)CC(OC(=O)C(O)C(C=C(C)C)NC(=O)OC(C)(C)C)C(C)=C1C2(C)C (stereo not shown) — AUC(0-t) (male Sprague-Dawley rat, plasma; intravenous, 4 mg/kg): 941 ng·h/mL
O=C(CCc1ccc(CNC(C(=O)OC2CCCC2)C2CCCCC2)cn1)NO (stereo not shown) — Vd/F (human, plasma; oral, 40 mg, multiple doses, once daily, patients): 93.5 L
CC12CC(c3ccc(S(C)(=O)=O)cc3)C3=C4CCC(=O)C=C4CCC3C1CCC2(O)C(F)(F)C(F)(F)F (stereo not shown) — AUC (human, plasma; intravenous, 15.7 µg, infusion): 2.17 ng·h/mL
CC(=O)N[C@H](CSSC[C@H](N)C(=O)O)C(=O)N[C@H](C)C(=O)N[C@H](CCCNC(=N)N)C(=O)N[C@H](CCCNC(=N)N)C(=O)N[C@H](CCCNC(=N)N)C(=O)N[C@H](C)C(=O)N[C@H](CCCNC(=N)N)C(N)=O — Vd (male human, plasma; intravenous, 10 mg, single dose, healthy volunteers): 150 L
CN1CCC[C@]1(C)/C=C/S(=O)(=O)NC(=O)Nc1c2c(cc3c1CCC3)CCC2 — AUC(0-t) (human, plasma; oral, 50 mg, single dose, healthy volunteers): 40800 ng·h/mL
CCCC[C@H](NC(C)=O)C(=O)N[C@H]1CC(=O)NCCCC[C@@H](C(=O)N[C@@H](C(=O)N2CCC[C@@H]2C(N)=O)C(C)C)NC(=O)[C@H](Cc2c[nH]c3ccccc23)NC(=O)[C@H](CCCN=C(N)N)NC(=O)[C@@H](Cc2ccc3ccccc3c2)NC(=O)[C@@H]2CCCN2C1=O — mean corpuscular haemoglobin concentration (dog; dose not given, day 1, start of treatment): 34 g/dL
C=C(c1ncc(C(=O)O)cn1)c1cc2c(cc1C)C(C)(C)CCC2(C)C — blood cholesterol (Sprague-Dawley rat, male; oral, 100 mg/kg, 9 h, sesame oil vehicle): 73 ± 10.7 mg/dL
COC(=O)C(c1ccccc1Cl)N1CCC(SCC(=O)c2cccc(OC)c2)C(=CC(=O)O)C1 (mixture of isomers) — deviation from nominal concentration (feline citrate plasma; 100 ng/mL, 1 weeks, room temperature): -20%
COc1ccc(/C=C/c2ccc(-c3ccc(C)cn3)nc2)cc1 — fluorescence lifetime (aqueous HEPES buffer; pH 7.4, zinc(II) complex): 2.69 ns
Cc1[nH]nc2c1N=C(c1ccccc1Cl)c1cnc(N3CCOCC3)cc1N2 — radioactivity recovered (human male, urine and feces; oral, 10 mg, 120 h; baseline: dose): 93%
CCCC[C@@H]1NC(=O)[C@@H](NC(=O)[C@H](CCC(=O)O)NC(=O)CNC(=O)CN2CCN(CC(=O)O)CCN(CC(=O)O)CCN(CC(=O)O)CC2)CCCCNC(=O)C[C@@H](C(N)=O)NC(=O)[C@H](C(C)C)NC(=O)[C@@H]2CCCN2C(=O)[C@H](CCCNC(=N)N)NC(=O)CNC(=O)[C@H](Cc2c[nH]c3ccccc23)NC(=O)[C@H](CCCNC(=N)N)NC(=O)[C@@H](Cc2ccccc2)NC(=O)[C@H](Cc2c[nH]cn2)NC(=O)[C@H](CCC(=O)O)NC1=O [gallium-67 labelled] — urine excretion (C57 mice, B16/F1 flank melanoma; intravenous, 0.037 MBq, 4 h): 86.6 ± 1.73%
CC(C)C[C@H](NC(=O)[C@H](CCCCN)NC(=O)CNC(=O)[C@H](CC(C)C)NC(=O)[C@@H](NC(=O)[C@@H]1CSSC[C@H](N)C(=O)N[C@@H](CO)C(=O)N[C@@H](CC(N)=O)C(=O)N[C@@H](CC(C)C)C(=O)N[C@@H](CO)C(=O)N[C@@H]([C@@H](C)O)C(=O)N1)C(C)C)C(=O)N[C@@H](CO)C(=O)N[C@@H](CCC(N)=O)C(=O)N[C@@H](CCC(=O)O)C(=O)N[C@@H](CC(C)C)C(=O)N[C@@H](Cc1c[nH]cn1)C(=O)N[C@@H](CCCCN)C(=O)N[C@@H](CC(C)C)C(=O)N[C@@H](CCC(N)=O)C(=O)N[C@H](C(=O)N[C@@H](Cc1ccc(O)cc1)C(=O)N1CCC[C@H]1C(=O)N[C@@H](CCCNC(=N)N)C(=O)N[C@H](C(=O)N[C@@H](CC(N)=O)C(=O)N[C@H](C(=O)NCC(=O)N[C@@H](CO)C(=O)NCC(=O)N[C@H](C(=O)N1CCC[C@H]1C(N)=O)[C@@H](C)O)[C@@H](C)O)[C@@H](C)O)[C@@H](C)O — FTIR amide I band (FTIR spectroscopy; KBr tablet; powder, inlet air 130 °C): 1660 cm⁻¹
CC(C)(F)CC(NC(c1ccc(-c2ccc(S(C)(=O)=O)cc2)cc1)C(F)(F)F)C(=O)NCC#CBr (stereo not shown) — cysteine adduct formation (LC-MS UV trace; aqueous buffer; concentration not given, 23 h, pH 5.5, 37 °C, with: cysteine 10 mM): < 1%
c1ccc(CN2CCOCCOCCN(CCCCCCCCCCCCCCN3CCOCCOCCN(CCCCCCCCCCCCCCN4CCOCCOCCN(Cc5ccccc5)CCOCCOCC4)CCOCCOCC3)CCOCCOCC2)cc1 — aggregate size (dynamic light scattering; water): 300 ± 50 nm
CCCCC/C=C/C=C/C(=O)NCC(C)C — relative error (rat plasma; 15 ng/mL, 48 h, 4 °C, short-term storage low QC; baseline: nominal concentration): -0.22%
OCc1cn(Cc2ccc(-c3noc(-c4ccc(OCC[18F])c(C(F)(F)F)c4)n3)cc2)nn1 — tracer uptake (rat, heart; intravenous, 2 h): 0.94 %ID/g

Repeated from above:
COc1ccc(OC)c(/C(=C\c2ccc(O)c(O)c2)C(=O)NCCc2ccc(O)cc2)c1 — formation from FLZ (mouse liver S9; concentration not given, 30 min, with: FLZ): not detected
CSc1ccc([C@H]2C[C@@]3(C)[C@@H](CC[C@@]3(O)C(F)(F)C(F)(F)F)[C@@H]3CCC4=CC(=O)CCC4=C32)cc1 — maximal oral bioavailability (human liver microsomes; 100 % absorption assumed): 31%
O=C(O)CCC(NP(=O)(O)OCCC[C@@H](NC(=O)CC[C@H](NC(=O)CCCCCNC(=O)c1ccc([18F])cc1)C(=O)O)C(=O)O)C(=O)O (stereo partly shown) — tumour uptake (mouse, CWR22Rv1 tumour xenograft, tumour; dose not given, 1 h): 2.35%
